Results pooled from the literature.
Lines come from different studies, so protocols differ. ± marks the error that the study gave.
Organism: HIV-1

Structure (SMILES) | assay | test system | conditions | IC50 [µM]
CC(=O)N[C@@H](CC(C)C)C(=O)N[C@@H](CO)C(=O)N[C@@H](CC(=O)O)C(=O)N[C@@H](CO)C(=O)N1CCC[C@H]1C(=O)N[C@@H](CC(N)=O)C(=O)NCC(=O)N1CCC[C@H]1C(=O)N[C@@H](Cc1c[nH]c2ccccc12)C(=O)N[C@H](C(=O)N[C@@H](Cc1c[nH]c2ccccc12)C(=O)N[C@H](C(=O)N1CCC[C@H]1C(=O)N[C@@H](C)C(=O)N[C@@H](Cc1ccccc1)C(=O)N[C@@H](CO)C(=O)N[C@@H](CCC(N)=O)C(=O)N[C@@H](C)C(=O)N[C@H](C(=O)NCC(=O)O)C(C)C)C(C)C)C(C)C | viral replication, inhibitor, SEAP reporter | CEMx174 SEAP reporter, NL4-3 | 3 days | > 60
COC(=O)c1ccccc1NC(=O)Cc1cn(OC)c2ccccc12 | viral replication | HEK293T | – | 3.37 ± 0.45
COc1ccc2c(c1)OCCCC=CCCCCN(CC(O)C(Cc1ccccc1)NC(=O)OC1COC3OCCC13)S2(=O)=O (mixture of isomers) | viral replication, p24 Gag production | PHA-stimulated PBMC, ERS104pre wild-type X4 | – | 0.007 ± 0.002
CC(=O)[O-].F[P-](F)(F)(F)(F)F.[Co+2].c1ccc(CN2CCCN3CCN(CCCN(Cc4ccccc4)CC3)CC2)cc1 | viral replication | MT-4, IIIB | 5 d | 1.82
Cc1nc([C@H](NC(=O)c2ccc(-c3ccc(Cl)cc3)[nH]2)[C@H]2CCCCN2)sc1CO | cell-cell transmission, refers to: p24 | H9 and Ghost X4/R5, IIIB CXCR4-tropic | – | 2
CC(=O)N[C@@H](Cc1ccc(O)cc1)C(=O)N[C@@H](CO)C(=O)N[C@@H](CO)C(=O)N[C@@H](Cc1c[nH]cn1)C(=O)N[C@@H](Cc1ccccc1)C(=O)N1CCC[C@H]1C(=O)N[C@@H](Cc1ccc(O)cc1)C(=O)N[C@@H](CO)C(=O)N[C@@H](CCC(N)=O)C(=O)N[C@@H](Cc1ccc(O)cc1)C(=O)N[C@@H](CCC(N)=O)C(=O)N[C@@H](Cc1ccccc1)C(=O)N[C@@H](Cc1c[nH]c2ccccc12)C(=O)N[C@@H](CCCCN)C(N)=O | viral entry | TZM-bl, YU2 (R5) pseudovirus | 48 h | 179
CC(C)CN(C[C@@H](O)[C@H](Cc1ccccc1)NC(=O)O[C@H]1C2CO[C@H]3OC[C@@H]1C3C2)S(=O)(=O)c1ccc2nc(NC3CC3)sc2c1 (stereo partly drawn) | viral replication, p24 | MT-4, NL4-3 wild type | – | 0.00026 ± 3e-05
CC(=O)N[C@@H](CS)C(=O)N[C@@H](CO)C(=O)N[C@@H](CO)C(=O)N[C@@H](Cc1ccc(O)cc1)C(=O)N[C@@H](Cc1ccc(O)cc1)C(=O)N1CCC[C@H]1C(=O)N[C@@H](Cc1c[nH]c2ccccc12)C(=O)N[C@@H](CO)C(=O)N[C@@H](CCC(N)=O)C(=O)N[C@@H](Cc1ccc(O)cc1)C(=O)N[C@@H](CCC(N)=O)C(=O)N[C@@H](Cc1c[nH]c2ccccc12)C(=O)N[C@@H](Cc1c[nH]c2ccccc12)C(=O)N[C@@H](CCCCN)C(N)=O | viral entry | TZM-bl, YU2 (R5) pseudovirus | 48 h | 2.1
CC(C)C[C@@H](N)C(=O)NCC(=O)N[C@H](C)C(=O)N[C@H](CO)C(=O)N[C@H](Cc1c[nH]c2ccccc12)C(=O)N[C@H](Cc1c[nH]cn1)C(=O)N[C@H](CCCNC(=N)N)C(=O)N1CCC[C@@H]1C(=O)N[C@H](CC(=O)O)C(=O)N[C@H](CCCCN)C(=O)N[C@H](CS)C(=O)N[C@H](CS)C(=O)N[C@H](CC(C)C)C(=O)NCC(=O)N[C@H](Cc1ccc(O)cc1)C(=O)N[C@H](CCC(N)=O)C(=O)N[C@H](CCCCN)C(=O)N[C@H](CCCNC(=N)N)C(=O)N1CCC[C@@H]1C(=O)N[C@H](CC(C)C)C(=O)N1CCC[C@@H]1C(N)=O | single-cycle infectivity, p24 immunoperoxidase focus | HeLa cells expressing CD4, HXBc2 | 48 h | 24
CC(C)C[C@@H](N)C(=O)NCC(=O)N[C@H](C)C(=O)N[C@H](CO)C(=O)N[C@H](Cc1c[nH]c2ccccc12)C(=O)N[C@H](Cc1c[nH]cn1)C(=O)N[C@H](CCCNC(=N)N)C(=O)N1CCC[C@@H]1C(=O)N[C@H](CC(=O)O)C(=O)N[C@H](CCCCN)C(=O)N[C@H](CCCCN)C(=O)N[C@H](CCCNC(=N)N)C(=O)NCCCCCC(=O)N[C@@H](CCCCN)C(=O)N[C@@H](CCCNC(=N)N)C(=O)N[C@@H](CCCCN)C(=O)N[C@H](C(=O)N[C@@H](CC(N)=O)C(=O)N[C@@H](CC(N)=O)C(=O)N[C@@H](CC(N)=O)C(=O)N1CCC[C@H]1C(=O)N[C@@H](CCCNC(=N)N)C(=O)N[C@H](C(=O)N[C@@H](CS)C(N)=O)[C@@H](C)O)[C@@H](C)O | viral replication, refers to: p24 antigen | PBMC, NL4-3 (X4) | 5 d | 0.093
CC(=O)[O-].CN1CCCN2CCN(C)CCCN(CC1)CC2.F[P-](F)(F)(F)(F)F.[Co+2] | viral replication | MT-4, IIIB | 5 d | > 100
CC[C@H](C)[C@H](N)C(=O)N[C@@H](CO)C(=O)N[C@@H](Cc1ccccc1)C(=O)N[C@@H]1CSCc2ccc(cc2)-c2ccc(cc2)CSC[C@@H](C(=O)N[C@@H](CCC(=O)O)C(=O)N[C@@H](CO)C(=O)NCC(=O)N[C@@H](CO)C(N)=O)NC(=O)[C@H](Cc2ccc(O)cc2)NC(=O)[C@H](Cc2ccc(O)cc2)NC(=O)[C@H](CC(=O)O)NC(=O)[C@H](CC(C)C)NC(=O)[C@H](CC(C)C)NC(=O)[C@H](CCC(=O)O)NC1=O | viral entry, single-cycle pseudovirus | Env SC422661 clone B, subtype B | – | 3.7 ± 0.6
